Experimental data pooled from the literature.
Protocols differ between the studies behind these lines.
ALK: ALK tyrosine kinase receptor (ALK, Homo sapiens, UniProt Q9UM73)
UniProt Q9UM73, sequence (whole entry, unmodified, looked up): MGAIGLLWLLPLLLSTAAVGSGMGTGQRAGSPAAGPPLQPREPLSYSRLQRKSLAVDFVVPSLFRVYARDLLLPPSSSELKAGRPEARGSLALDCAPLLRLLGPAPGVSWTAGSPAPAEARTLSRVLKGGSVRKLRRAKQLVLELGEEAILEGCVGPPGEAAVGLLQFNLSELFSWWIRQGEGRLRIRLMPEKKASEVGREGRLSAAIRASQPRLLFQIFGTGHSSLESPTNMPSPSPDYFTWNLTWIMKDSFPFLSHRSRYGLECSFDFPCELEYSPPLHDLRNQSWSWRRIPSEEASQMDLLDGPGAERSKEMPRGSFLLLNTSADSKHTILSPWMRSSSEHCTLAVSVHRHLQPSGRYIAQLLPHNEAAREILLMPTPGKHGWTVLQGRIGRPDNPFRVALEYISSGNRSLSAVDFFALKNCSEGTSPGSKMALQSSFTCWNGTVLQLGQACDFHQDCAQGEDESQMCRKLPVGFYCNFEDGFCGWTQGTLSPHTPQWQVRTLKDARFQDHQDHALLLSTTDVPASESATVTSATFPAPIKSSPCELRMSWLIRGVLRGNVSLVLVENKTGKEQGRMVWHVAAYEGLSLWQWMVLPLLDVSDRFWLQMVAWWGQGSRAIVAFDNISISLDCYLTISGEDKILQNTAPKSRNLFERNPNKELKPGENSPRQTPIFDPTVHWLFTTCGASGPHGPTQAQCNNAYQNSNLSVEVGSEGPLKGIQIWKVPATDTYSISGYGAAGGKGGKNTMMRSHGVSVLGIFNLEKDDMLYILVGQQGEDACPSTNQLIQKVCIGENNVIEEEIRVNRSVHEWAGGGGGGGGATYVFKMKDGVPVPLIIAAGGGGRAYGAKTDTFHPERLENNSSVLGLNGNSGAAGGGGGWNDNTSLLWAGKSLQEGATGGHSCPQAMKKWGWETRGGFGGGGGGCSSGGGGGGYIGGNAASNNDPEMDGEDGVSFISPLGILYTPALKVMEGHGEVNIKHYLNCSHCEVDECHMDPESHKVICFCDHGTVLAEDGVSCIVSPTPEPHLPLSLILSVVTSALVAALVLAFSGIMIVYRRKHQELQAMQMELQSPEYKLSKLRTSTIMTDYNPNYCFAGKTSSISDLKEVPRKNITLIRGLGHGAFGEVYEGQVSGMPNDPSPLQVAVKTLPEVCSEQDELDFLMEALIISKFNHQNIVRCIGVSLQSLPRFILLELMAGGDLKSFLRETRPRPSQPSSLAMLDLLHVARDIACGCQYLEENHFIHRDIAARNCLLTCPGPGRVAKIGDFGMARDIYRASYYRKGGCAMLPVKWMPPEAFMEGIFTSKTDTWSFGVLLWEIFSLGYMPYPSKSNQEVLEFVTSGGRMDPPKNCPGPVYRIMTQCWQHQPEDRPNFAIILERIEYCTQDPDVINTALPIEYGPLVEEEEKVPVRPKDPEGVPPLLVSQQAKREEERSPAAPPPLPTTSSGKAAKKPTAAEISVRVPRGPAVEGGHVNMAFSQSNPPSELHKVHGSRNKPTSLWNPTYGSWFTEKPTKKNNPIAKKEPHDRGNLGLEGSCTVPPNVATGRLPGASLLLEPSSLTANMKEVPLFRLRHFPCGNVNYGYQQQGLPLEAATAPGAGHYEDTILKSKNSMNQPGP

Compound | target | read-out | mode | technique | together with | measurement | result
COc1cc(N2CCN(C(=O)C3CCCN3)CC2)ccc1Nc1ncc(Cl)c(Nc2ccccc2P(C)(C)=O)n1 (stereo not shown) | ALK | binding | – | ITC | – | Kd | 144 nM
Cc1ccc2oc(-c3c4c(N)n[nH]c(=O)c4nn3-c3ccc(NC(=O)/C=C/CN(C)C)cc3)c(C)c2c1 | ALK | enzyme activity | inhibitor | ELISA | – | IC50 | > 1000 nM
CCn1nc(Cl)c2c1-c1cnc(N)c(c1)O[C@H](C)c1cc(F)ccc1-c1nn(C)cc1C2 | ALK tyrosine kinase receptor (ALK, Homo sapiens, UniProt Q9UM73, G1202R) | enzyme activity | inhibitor | – | 1 mM ATP | IC50 | 0.9 nM
Cn1cc(-c2cc3c(N4CCC[C@H](C(=O)NCc5ccc(OC(F)(F)F)cc5)C4)ncnc3[nH]2)cn1 | ALK | enzyme activity | inhibitor | TR-FRET | – | IC50 | < 10 nM
N=C(N)NCCC[C@@H]1NC(=O)[C@H](Cc2c[nH]c3ccccc23)NC(=O)[C@H](CCCNC(=N)N)NC(=O)[C@H](Cc2c[nH]c3ccccc23)NC(=O)[C@H](CCCNC(=N)N)NC(=O)[C@H](Cc2c[nH]c3ccccc23)NC(=O)[C@H](CCCNC(=N)N)NC(=O)[C@H](Cc2c[nH]c3ccccc23)NC(=O)[C@H](CCCNC(=N)N)NC(=O)[C@H](Cc2c[nH]c3ccccc23)NC(=O)[C@H](CCCNC(=N)N)NC(=O)[C@H](Cc2c[nH]c3ccccc23)NC(=O)[C@H](CCCNC(=N)N)NC(=O)[C@H](Cc2c[nH]c3ccccc23)NC(=O)[C@H](CCCNC(=N)N)NC(=O)[C@H](Cc2c[nH]c3ccccc23)NC(=O)[C@H](CCCNC(=N)N)NC(=O)[C@H](Cc2c[nH]c3ccccc23)NC1=O | ALK | enzyme activity | inhibitor | – | – | IC50 | < 250 nM
CN(C)/C=C/C(=O)c1ccc2[nH]c3ncc(-c4ccc(N5CCN(C)CC5)cc4)cc3c2c1 | ALK tyrosine kinase receptor (ALK, Homo sapiens, UniProt Q9UM73, R1275Q) | enzyme activity | inhibitor | radiometric | – | IC50 | 250 nM
CN(C(=O)c1ccn2ncc(-c3ccc(C(N)=O)cc3)c2c1)c1ccc(C#N)cn1 | ALK | enzyme activity | inhibitor | – | – | IC50 | > 10000 nM
N=C(N)NCCC[C@@H]1NC(=O)[C@H](Cc2c[nH]c3ccccc23)NC(=O)[C@H](CCCNC(=N)N)NC(=O)[C@H](Cc2c[nH]c3ccccc23)NC(=O)[C@H](CCCNC(=N)N)NC(=O)[C@H](Cc2c[nH]c3ccccc23)NC(=O)[C@H](CCCNC(=N)N)NC(=O)[C@H](Cc2c[nH]c3ccccc23)NC(=O)[C@H](CCCNC(=N)N)NC(=O)[C@H](Cc2c[nH]c3ccccc23)NC(=O)[C@H](CCCNC(=N)N)NC(=O)[C@H](Cc2c[nH]c3ccccc23)NC(=O)[C@H](CCCNC(=N)N)NC(=O)[C@H](Cc2c[nH]c3ccccc23)NC1=O | ALK | enzyme activity | inhibitor | – | – | IC50 | < 250 nM
C(=C\c1cnc2[nH]c3ccccc3c2c1)/c1ccccc1 | ALK | enzyme activity | inhibitor | ELISA | – | IC50 | 340 nM
Cc1nn(C)cc1-c1cc2c(N3CCC[C@H](C(=O)NCc4ccc(OC(F)(F)F)cc4)C3)ncnc2[nH]1 | ALK | enzyme activity | inhibitor | TR-FRET | – | IC50 | < 10 nM

Repeated from above:
Compound | target | read-out | mode | technique | together with | measurement | result
CN(C(=O)c1ccn2ncc(-c3ccc(C(N)=O)cc3)c2c1)c1ccc(C#N)cn1 | ALK | enzyme activity | inhibitor | – | – | IC50 | > 10000 nM
